Published values of several laboratories.
A part holds a random share of what one study measured.

Study 1 — method: protein binding microarray; form: double-stranded DNA, one strand shown; medium: in vitro; tested at: not given; relative to: not given; reading: higher = stronger binding
Target: Histone acetyltransferase KAT6A, winged helix 2, GST fusion (KAT6A, Homo sapiens, UniProt Q92794, residues 85-181)
Notes: 8-mer, flanks averaged, mean of 2 arrays, mostly near background
Target sequence (chain): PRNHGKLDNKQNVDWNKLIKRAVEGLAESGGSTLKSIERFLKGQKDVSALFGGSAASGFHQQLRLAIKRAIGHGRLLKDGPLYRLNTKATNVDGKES
Sequence	E-score
GGCAACAC	0.0679
ATACAGAT	-0.0497
AACGTGGG	-0.129
ACGGCTCA	0.0794
ATGCACAA	-0.0503
AGCTATGC	0.0735
ATAATTAC	0.033
TGCCGGAA	0.177
AGTTCTCC	-0.0126
ATAGCGTC	-0.115
ACATCCTC	-0.177
CAACCCTC	0.0324
CCCGTTCG	0.124
TAGTATGA	-0.101
CAGCACAG	0.0678
GGTCGCAC	0.191

Study 2 — method: aptamer microarray, sandwich; form: DNA with 2'F-ANA; medium: in vitro; tested at: 200 nM; with: Cy3 exosite-II aptamer, 400 nM; reading: higher = stronger binding; sequence: GGTTGGTGTGGTTGG
Target: Prothrombin, mature alpha-thrombin (F2, Homo sapiens, UniProt P00734)
Notes: whole 15-mer aptamer, many near background
Modification	mean fluorescence intensity [a.u.]
2'F-ANA at 1 2 4 5 6 7 9 12 13 15	63.4
2'F-ANA at 1 2 3 4 7 8 13 15	128
2'F-ANA at 3 6 10 11 12 14	428
2'F-ANA at 1 4 5 7 8 12 14	46.5
2'F-ANA at 1 2 3 4 6 7 8 9 11 13 14 15	61.9
2'F-ANA at 5 6 7 8 10 12 14	71.6
2'F-ANA at 3 7 8 9 13 14	684
2'F-ANA at 2 3 5 6 7 10 12 13	55.3
2'F-ANA at 3 4 6 8 10 12 13 14 15	174
2'F-ANA at 2 4 5 6 7 10 13 14 15	45.3
2'F-ANA at 7 8 9 11 13 15	418
2'F-ANA at 5 6 9 12 13 14	45.8
2'F-ANA at 1 2 3 4 5 8 9 11 13	52.9
2'F-ANA at 1 2 6 7 8 11 12 14	80.3
2'F-ANA at 2 4 5 6 7 9 13 15	56.1
2'F-ANA at 1 3 5 6 7 8 9 11 12	120
2'F-ANA at 3 4 6 9 10 12 14	168
2'F-ANA at 6 14 15	202
2'F-ANA at 1 3 10 11 13 15	74.9
2'F-ANA at 1 3 5 8 9 10 11 12 13 15	110
2'F-ANA at 1 2 3 4 9 10 11 13	53.4
2'F-ANA at 3 5 9 12 13 15	169

Study 3 — method: RNA Bind-n-Seq; form: RNA; medium: in vitro; tested at: 200 nM; notes: whole 134-nt RNA, ends assumed; with: 150 mM LiCl; relative to: input library; reading: higher = stronger binding; library: 7-deaza-guanosine replaces G
Target: Ras GTPase-activating protein-binding protein 1, full length (G3BP1, Homo sapiens, UniProt Q13283)
Chain of UniProt Q13283 (whole entry, looked up): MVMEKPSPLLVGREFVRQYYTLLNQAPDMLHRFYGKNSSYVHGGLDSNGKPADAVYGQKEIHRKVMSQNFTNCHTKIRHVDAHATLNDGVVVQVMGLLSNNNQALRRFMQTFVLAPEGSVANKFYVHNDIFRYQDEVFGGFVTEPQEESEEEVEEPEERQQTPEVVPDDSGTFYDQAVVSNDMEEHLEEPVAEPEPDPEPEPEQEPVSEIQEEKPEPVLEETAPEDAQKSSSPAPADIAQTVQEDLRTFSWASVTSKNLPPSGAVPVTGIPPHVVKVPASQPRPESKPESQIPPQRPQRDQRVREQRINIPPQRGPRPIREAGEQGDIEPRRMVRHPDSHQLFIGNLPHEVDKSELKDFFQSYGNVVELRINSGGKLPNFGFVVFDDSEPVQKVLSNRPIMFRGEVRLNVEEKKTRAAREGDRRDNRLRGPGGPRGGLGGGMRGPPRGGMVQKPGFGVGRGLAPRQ
Constant ends, left off below: GGGAGUUCUACAGUCCGACGAUC … UGGAAUUCUCGGGUGUCAAGG
Sequence	log2 enrichment
AGUCCUGUGCUACACAUCGUAUGUACCGAAUCGGGGCCCCCGGCCCCCGGCCCCCGGAAAGUAUUAUGUUACGCCGUUCGGAUCUGCACU	-1.67
CCUGUGCUACACAUCGUAUGUACCGAAUCGGAAAAAAAGGGGAAAAAAAGGAAAAAAAGGAAAGUAUUAUGUUACGCCGUUCGGAUCUGC	-0.41
GCAGGAAGUAAAAACAAAUGGAAAUGCUUCGGAUAGUGGCAGUGGUGGGGGUUGCUAAGGAAAGGGUGGGAUGGGAGUGGGUAAAGAGUU	0.0339
CACAGACAACACGCACCCACACAGACACAGAGGGAAGGGGUUGGGAUGGGGACAGGGUGCAAAGCAGGGCGGGGUAGGACCCCAGCCCCU	0.0341
ACCAUGCAGGUGGGCAUCUUUGGGAAGUGGGGCAAGGGGGGGAUAGGCAGGGGGGUAACACUUUGGGAACAGGUGGUCCCAGGUCGUUUC	0.236
AAGUCCUGUGCUACACAUCGUAUGUACCGAAUCGGGCCCCGGCCCCGGGGCCCCGGAAAGUAUUAUGUUACGCCGUUCGGAUCUGCACUU	-2.65
AAGUCCUGUGCUACACAUCGUAUGUACCGAAUCGGAAAAAGGAAAGGUUUUUUUGGAAAGUAUUAUGUUACGCCGUUCGGAUCUGCACUU	-1.76
CCCAGACAACACGCACCCACACAGACACAGAGGGAAGGGGUUGGGAUGGGGACAGGGUGCACAGCAGGGCGGGGUAGGACCCCAGCCCCU	-1.34
CACAGACAACACAAACCCACACAGACACAGAGGGAAGGGGUUGGGAUGGGGACAGGGUGCACAGCAGGGCGGGGUAGGACCCCAGCCCCU	-0.0484
AAGUCCUGUGCUACACAUCGUAUGUACCGAAUCAAACCCAAACCCAAACCCCCAAAAAAGUAUUAUGUUACGCCGUUCGGAUCUGCACUU	-0.0712
GCAGGAUGUAAAAACAAAUGGAAAUGCUUCGGAUAGUGGCAGGGGUGGGGGUUGCUAAGGAAAGGGUGGGAUGGGAGUGGGUAAAGAGUU	0.0294

Study 4 — method: RNA Bind-n-Seq; form: RNA; medium: in vitro; tested at: 365 nM; relative to: no-protein control; reading: higher = stronger binding
Target: RNA binding protein fox-1 homolog 2, RRM domain, GST-SBP tag (RBFOX2, Homo sapiens, UniProt O43251-10, residues 100-194)
Notes: natural RNA segment, single round, ends assumed
Constant ends, left off below: GGGAGUUCUACAGUCCGACGAUC … UGGAAUUCUCGGGUGCCAA
Target sequence (chain): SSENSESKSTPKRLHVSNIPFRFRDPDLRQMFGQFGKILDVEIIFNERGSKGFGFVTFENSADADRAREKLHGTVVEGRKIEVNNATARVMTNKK
Sequence	RBNS enrichment (R)
CAACCUUUCCUCUUUGUUCUGAGGGACACGGACACGGGGGCCCUCCUCUUCAUAGGCAGAAUCCUGGACCCCAGUAGUACUUAAUGUCUCAGUGCUCUACAGAACCCCCA	0.374
UUCUUUCCAUUCCUUGAUAGGCGAGUAUUCCAAAGCUGGUAUCGUAGCUGCCCUAAUGUUGCAUAUUAGGCGGCGGGGGCAGAGAUAAGGGCCAUCUCUCUGUGAUUCUG	0.237
GAAUUGCAUUGCAUUGAGUUGUACCGGUAUUGCACAGCCCUGCGUGUGAGCCAGAUGUAACACUCCAAGCAGCUGUGAAAUGCAAUGUUCCUUUUGCAGGAGUGGCUGUA	2.03
CAGCCCUGCCAGGGACUUUGCUUGUACUUGUAAAUGGUGAGGGUUGGUGAGCUGCUGGUAUUGCUGAAGGCAGGGUGGACCCCUCACUUGCUUCCUAGUGCACUCGUUCA	4.65
UUUUUGCUGGGUUUAUUCGUGCUGGUUCAUCGUGAGUAAGAAGCCUGCCUUGCUGUUCCUGGGAAGAUGCCAUAGUUUUCGUUACUGGAUGUUUGGAGUAGAUACUGGUC	1.79
CUGGAAUGCUUGUGAGUCCGUUCCCACAGGCUCACAGUGUCAGGAGAGAGUGGCAGAUGCUCCAGUUUCACUUAAGCAGUGGUAAACGUUUGAAGGUUCGUUUUUUGUUG	0.589
CUGUGCCAUACUGAGGGGUGGUUGUGUUUGCAGGAGGUAGCCACUCUAGAGGCCGCGGCAGAAGGAGCUCUGUGAGUCCAAGGCCAGCCUGUUCUACAUAGUGAGUUCCA	2.03
UUCUAUUAUAACUGCAUAGUAAUAGGGCCCUUAGCUCUCCCGUAGUCAGCGCAGUUUAGCAGUUAAAAGUGUAUUUUUGUUUAAUCAAACAAUAAUAAAGAGAGAUUUGU	0.485
CACUGCCUUCAUGCUGCCCCCGCCGGACUGGCAGAGCCAGGGGUCAGCCACCUGCCUUUGAGUCAUCAAGAUGCCUCUGCAGCCACAAUUCUGACCUAAGUGGCAGGGCC	0.305
UCCUAUCUGUUACCAUAACAGAGUAGCAUUAAUAGUGUUAAGGAUUGGUGCUAGCCCAUGGGAUCGAUCUCAAGUUGGGCUGGUUACUGGUUAGCCAUUCCCUCACUCUC	0.315
UUUUUGCAGAUUCUUGGCUGGGUUUAGUGUACUGAUCUAGAAAAGCUGUUUUUCUGCUCCUUUGUGGAAGGCAGUUAUGAUCAGGCUGCAUGGACAAAGCAGGUAGAGGG	0.303
UAUCACUUCAGGGCUUGGAAAAGUCAGUCAACUUGACGUACAUUUUUAGUGACAUUUUAAAAGCAGUCAGAUUCUAUAAAUGGCAAGUAAGCCUGAAGUGAGGAUACUGC	0.336

Study 5 — method: protein-binding microarray; form: double-stranded DNA, one strand shown; medium: in vitro; tested at: not given; reading: higher = stronger binding
Target: Protein C-ets-1 (ETS1, Homo sapiens, UniProt P14921, residues 1-441, full length assumed)
Notes: k-mer, scored over probes, only values ≥0.25
Construct (chain): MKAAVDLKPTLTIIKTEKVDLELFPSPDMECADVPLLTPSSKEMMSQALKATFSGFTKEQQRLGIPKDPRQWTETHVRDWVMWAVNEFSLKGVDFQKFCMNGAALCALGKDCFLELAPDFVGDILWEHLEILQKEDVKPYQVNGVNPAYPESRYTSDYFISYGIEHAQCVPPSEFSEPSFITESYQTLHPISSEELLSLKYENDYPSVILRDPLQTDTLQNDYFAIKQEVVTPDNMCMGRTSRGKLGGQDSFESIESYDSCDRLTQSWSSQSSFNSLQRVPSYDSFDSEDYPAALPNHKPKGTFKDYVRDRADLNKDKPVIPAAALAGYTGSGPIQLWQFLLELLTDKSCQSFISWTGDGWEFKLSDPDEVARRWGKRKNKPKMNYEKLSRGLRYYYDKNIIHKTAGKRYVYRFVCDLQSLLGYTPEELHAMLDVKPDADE
Sequence	E-score
CCGGTAAC	0.315
GTAAAGGA	0.252
TCCGGCGA	0.417
ATGTCCGG	0.444
CATGTCCG	0.397
GGAAATCA	0.381
CAGGTTTC	0.312
ACATCCCG	0.421
GCTGGAAA	0.319
GTCAGGAA	0.385
GGAAACCC	0.379
CCGGATTA	0.322
ATCCGCAT	0.351
GCACGTCC	0.297
CCGTTTCC	0.443
CGAGGAAA	0.272
CGGATACG	0.447
CCGGCATC	0.308
GAAACATC	0.33
ATCCTGTG	0.396
CCGGTCCG	0.379
CACGGAAA	0.367
CATTTCCC	0.407
GACAGGAA	0.468
AGGAACTG	0.293

Some of these lines once more (study 1):
Sequence	E-score
ATGCACAA	-0.0503
AGCTATGC	0.0735
ATAATTAC	0.033
TGCCGGAA	0.177
AGTTCTCC	-0.0126
ATAGCGTC	-0.115
ACATCCTC	-0.177
CAACCCTC	0.0324
